Experimental data from different studies.
Each numbered part is a random draw from the data of one study; scales do not carry over between parts. “And” joins repeats or separate records; there may be more than shown.
Chain of UniProt Q9H1R3 (whole entry, looked up): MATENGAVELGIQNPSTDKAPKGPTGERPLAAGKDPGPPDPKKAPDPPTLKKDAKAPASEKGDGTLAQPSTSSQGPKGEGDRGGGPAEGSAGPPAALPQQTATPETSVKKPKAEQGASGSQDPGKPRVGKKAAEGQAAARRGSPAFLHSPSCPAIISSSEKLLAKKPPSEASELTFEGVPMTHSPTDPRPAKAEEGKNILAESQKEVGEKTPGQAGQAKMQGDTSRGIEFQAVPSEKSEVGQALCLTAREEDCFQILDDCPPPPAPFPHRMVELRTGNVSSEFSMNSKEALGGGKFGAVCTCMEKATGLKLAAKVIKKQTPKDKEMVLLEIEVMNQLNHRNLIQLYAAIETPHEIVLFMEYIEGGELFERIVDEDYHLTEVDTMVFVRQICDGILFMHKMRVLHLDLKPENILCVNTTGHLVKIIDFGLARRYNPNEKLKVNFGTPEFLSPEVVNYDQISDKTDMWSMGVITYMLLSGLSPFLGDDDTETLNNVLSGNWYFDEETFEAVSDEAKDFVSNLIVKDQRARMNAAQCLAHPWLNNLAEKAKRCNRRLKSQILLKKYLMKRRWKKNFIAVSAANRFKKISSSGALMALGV
Chain of UniProt Q13233 (whole entry, looked up): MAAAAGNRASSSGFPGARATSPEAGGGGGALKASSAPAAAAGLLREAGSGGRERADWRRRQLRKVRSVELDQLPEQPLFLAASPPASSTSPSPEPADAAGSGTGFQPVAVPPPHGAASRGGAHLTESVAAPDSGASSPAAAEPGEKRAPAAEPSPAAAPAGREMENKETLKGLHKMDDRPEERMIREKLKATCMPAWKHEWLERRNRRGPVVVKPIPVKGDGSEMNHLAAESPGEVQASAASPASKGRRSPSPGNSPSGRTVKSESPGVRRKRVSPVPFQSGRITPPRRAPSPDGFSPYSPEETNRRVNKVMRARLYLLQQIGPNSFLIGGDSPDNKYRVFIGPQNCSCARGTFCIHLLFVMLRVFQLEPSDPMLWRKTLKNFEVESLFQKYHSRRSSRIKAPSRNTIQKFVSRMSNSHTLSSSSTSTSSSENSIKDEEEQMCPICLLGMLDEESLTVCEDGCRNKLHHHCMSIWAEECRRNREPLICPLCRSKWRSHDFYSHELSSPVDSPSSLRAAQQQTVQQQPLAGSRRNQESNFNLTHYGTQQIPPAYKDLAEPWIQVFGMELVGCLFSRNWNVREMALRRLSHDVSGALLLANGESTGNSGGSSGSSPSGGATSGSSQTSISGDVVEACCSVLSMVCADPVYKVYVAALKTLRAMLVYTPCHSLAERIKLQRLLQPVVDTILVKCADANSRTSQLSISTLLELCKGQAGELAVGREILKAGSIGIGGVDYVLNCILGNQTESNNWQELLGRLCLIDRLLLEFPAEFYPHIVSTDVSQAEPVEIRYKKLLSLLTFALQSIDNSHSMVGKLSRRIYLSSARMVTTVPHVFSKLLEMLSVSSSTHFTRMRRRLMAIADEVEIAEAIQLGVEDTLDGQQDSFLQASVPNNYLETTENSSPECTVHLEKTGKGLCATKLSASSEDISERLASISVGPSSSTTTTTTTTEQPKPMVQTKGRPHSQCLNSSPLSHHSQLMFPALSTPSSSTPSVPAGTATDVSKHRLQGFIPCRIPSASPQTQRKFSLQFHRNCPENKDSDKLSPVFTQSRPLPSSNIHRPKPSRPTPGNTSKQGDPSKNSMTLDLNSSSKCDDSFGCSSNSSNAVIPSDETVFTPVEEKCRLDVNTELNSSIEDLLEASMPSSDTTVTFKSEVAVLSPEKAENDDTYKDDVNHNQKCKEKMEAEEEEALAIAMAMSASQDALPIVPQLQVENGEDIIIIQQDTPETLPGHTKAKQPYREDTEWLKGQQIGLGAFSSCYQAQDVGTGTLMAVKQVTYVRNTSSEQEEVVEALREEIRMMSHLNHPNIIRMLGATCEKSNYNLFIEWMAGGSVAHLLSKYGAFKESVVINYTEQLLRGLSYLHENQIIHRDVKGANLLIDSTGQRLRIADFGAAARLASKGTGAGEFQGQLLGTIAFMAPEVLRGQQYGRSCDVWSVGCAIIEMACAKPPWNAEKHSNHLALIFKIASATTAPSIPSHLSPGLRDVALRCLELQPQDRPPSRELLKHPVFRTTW
Chain of UniProt Q6ZN16 (whole entry, looked up): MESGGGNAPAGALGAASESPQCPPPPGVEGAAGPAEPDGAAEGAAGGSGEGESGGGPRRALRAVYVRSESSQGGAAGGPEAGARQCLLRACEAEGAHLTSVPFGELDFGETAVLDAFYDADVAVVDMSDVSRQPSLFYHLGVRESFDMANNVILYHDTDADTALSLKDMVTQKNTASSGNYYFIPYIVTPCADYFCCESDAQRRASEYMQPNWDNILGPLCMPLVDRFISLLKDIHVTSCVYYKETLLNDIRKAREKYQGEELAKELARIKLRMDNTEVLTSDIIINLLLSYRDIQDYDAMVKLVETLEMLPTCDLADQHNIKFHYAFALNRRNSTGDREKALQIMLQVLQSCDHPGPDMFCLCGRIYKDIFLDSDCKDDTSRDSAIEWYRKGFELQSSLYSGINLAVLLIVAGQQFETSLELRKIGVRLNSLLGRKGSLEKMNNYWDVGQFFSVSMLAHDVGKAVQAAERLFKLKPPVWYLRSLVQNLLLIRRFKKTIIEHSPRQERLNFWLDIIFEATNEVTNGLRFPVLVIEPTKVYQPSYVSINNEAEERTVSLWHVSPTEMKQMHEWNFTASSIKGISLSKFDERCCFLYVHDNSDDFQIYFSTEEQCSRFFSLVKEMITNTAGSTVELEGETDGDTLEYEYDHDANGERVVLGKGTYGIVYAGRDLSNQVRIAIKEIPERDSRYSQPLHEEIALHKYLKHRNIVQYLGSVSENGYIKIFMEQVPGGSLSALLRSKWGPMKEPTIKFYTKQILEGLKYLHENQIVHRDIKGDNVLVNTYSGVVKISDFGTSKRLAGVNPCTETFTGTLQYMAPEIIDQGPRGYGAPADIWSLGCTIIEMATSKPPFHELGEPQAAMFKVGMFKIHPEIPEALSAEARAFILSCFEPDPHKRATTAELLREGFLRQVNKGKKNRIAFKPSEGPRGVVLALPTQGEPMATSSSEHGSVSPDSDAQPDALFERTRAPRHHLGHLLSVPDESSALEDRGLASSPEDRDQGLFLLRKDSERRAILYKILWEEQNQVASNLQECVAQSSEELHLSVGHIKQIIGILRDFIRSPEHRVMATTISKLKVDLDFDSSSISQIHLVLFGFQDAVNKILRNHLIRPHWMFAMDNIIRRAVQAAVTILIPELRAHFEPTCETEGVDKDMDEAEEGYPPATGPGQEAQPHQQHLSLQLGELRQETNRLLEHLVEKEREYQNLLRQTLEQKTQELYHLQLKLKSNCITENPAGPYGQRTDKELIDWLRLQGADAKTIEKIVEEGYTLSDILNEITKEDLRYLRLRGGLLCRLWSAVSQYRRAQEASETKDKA
Chain of UniProt Q9BWU1 (whole entry, looked up): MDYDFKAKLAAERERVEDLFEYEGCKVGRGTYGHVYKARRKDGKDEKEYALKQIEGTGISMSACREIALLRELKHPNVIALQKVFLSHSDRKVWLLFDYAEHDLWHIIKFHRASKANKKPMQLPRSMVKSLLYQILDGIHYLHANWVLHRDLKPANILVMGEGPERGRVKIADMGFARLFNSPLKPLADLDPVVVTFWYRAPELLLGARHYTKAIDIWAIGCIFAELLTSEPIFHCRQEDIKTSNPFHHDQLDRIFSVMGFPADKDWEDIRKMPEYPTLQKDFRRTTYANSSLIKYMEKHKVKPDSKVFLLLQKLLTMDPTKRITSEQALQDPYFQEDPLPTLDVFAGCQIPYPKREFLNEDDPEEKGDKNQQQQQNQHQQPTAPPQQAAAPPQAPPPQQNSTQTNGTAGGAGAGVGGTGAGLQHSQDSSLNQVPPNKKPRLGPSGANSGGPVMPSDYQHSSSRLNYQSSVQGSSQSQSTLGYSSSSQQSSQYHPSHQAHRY

Sample 1
Structure (SMILES): CN(C)c1ncnc(-c2ccc3nc(Nc4cc(CN5CCN(C(=O)CC(F)(F)F)CC5)ccn4)[nH]c3c2)c1Cl
Tested at: 1 µM
Endpoint: remaining binding
MAP3K4 (Homo sapiens, UniProt Q9Y6R4); cell-free assay, competition with immobilised ligand: 100%
MYLK2 (Homo sapiens, UniProt Q9H1R3); cell-free assay, competition with immobilised ligand: 100%
MAP3K1 (Homo sapiens, UniProt Q13233); cell-free assay, competition with immobilised ligand: 100%
CDK19 (Homo sapiens, UniProt Q9BWU1); competition binding: 75%
MAP3K15 (Homo sapiens, UniProt Q6ZN16); cell-free assay, competition with immobilised ligand: 75%

Sample 2
Structure (SMILES): c1ccc(Oc2ccc(Nc3c4c(nc5ccccc35)CCC4)cc2)cc1
Organism: Leishmania donovani
Endpoint: inhibition
parasite growth, high-content imaging; MHOM/IN/80/DD8, amastigotes in THP-1 cells; 20 µM: 100%
parasite killing; DD8, promastigotes; 0.033 µM, 24 h: 4% and 5%
parasite killing; DD8, promastigotes; 1.66 µM, 24 h: 28% and 29% and 27%

Sample 3
Cell line: HaCaT
Tested at: 100 µM
Time: 60 h
Endpoint: viability
CC(=O)O[C@@]12CO[C@@H]1C[C@H](O)[C@@]1(C)C(=O)[C@H](O)C3=C(C)[C@@H](OC(=O)[C@H](O)[C@@H](NC(=O)OC(C)(C)C)c4ccccc4)C[C@@](O)([C@@H](OC(=O)c4ccccc4)[C@H]21)C3(C)C: 21.5%
CC(=O)OCC(COC(C)=O)OC(C)=O: 126%
OC1(c2ccc(Cl)c(C(F)(F)F)c2)CCN(CCCC(c2ccc(F)cc2)c2ccc(F)cc2)CC1: 17.8%

Sample 4
Species: human
Sample: microsomes or S9
Tested at: 2 µM
Time: 0.5 h
Endpoint: remaining compound
O=c1cc(-c2ccc(F)cc2)ncn1C1CCCC1: 4.35%
O=C(COC(=O)c1ccc(Br)o1)c1ccc(Cl)c(Cl)c1: 83.3%
CCS(=O)(=O)Nc1cccc(-c2cc(=O)n(-c3ccc(Cl)c(C#N)c3)nc2C(C)C)c1: > 99.9%
CN(C)CCCNCc1cccc(Oc2nnnn2-c2ccccc2)c1: 18.1%

Sample 5
Target: G protein-coupled receptor kinase 4 (GRK4, Homo sapiens, UniProt P32298)
Chain of UniProt P32298 (whole entry, looked up): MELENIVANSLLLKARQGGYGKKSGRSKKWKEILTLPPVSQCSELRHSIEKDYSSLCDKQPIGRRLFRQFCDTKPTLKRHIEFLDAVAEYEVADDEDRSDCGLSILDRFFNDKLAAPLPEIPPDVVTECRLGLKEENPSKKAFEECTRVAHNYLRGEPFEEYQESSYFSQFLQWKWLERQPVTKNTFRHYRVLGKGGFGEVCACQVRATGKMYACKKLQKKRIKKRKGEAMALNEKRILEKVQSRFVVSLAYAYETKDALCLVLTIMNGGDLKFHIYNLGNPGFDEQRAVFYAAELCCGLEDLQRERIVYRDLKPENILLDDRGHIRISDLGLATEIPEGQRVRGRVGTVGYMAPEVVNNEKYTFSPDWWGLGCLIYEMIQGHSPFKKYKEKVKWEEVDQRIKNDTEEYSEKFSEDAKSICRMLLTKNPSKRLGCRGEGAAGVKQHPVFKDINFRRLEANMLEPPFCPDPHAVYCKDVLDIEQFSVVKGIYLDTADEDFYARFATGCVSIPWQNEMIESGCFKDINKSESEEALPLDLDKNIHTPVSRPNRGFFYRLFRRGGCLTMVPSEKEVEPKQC
Observed: enzyme activity
Action: inhibitor
Tested at: 0.5 µM
Baseline: control
Endpoint: remaining activity
O=C1NC(=O)C(c2cn(CCCn3ccnc3)c3ccccc23)=C1Nc1ccccc1: 91.6%
CN(C)c1ccc(C=C2C(=O)Nc3ccccc32)cc1: 103%
OCC(O)CCON=C1C(c2c(O)[nH]c3ccccc23)=Nc2ccccc21 (stereo not shown): 74.7%
O=C(Nc1cccc(Nc2cc(Nc3cccc(C(F)(F)F)c3)ncn2)c1)C1CC1: 104%
Cn1c2ccccc2c2c3c(c4c5ccccc5n(CCC#N)c4c21)CNC3=O: 75.1%
COc1cc2nccc(Oc3ccc(NC(=S)NC(=O)c4ccccc4C)cc3)c2cc1OC: 95.9%
CO[C@H]1C[C@@H]2CC[C@@H](C)[C@@](O)(O2)C(=O)C(=O)N2CCCC[C@H]2C(=O)O[C@H]([C@H](C)C[C@@H]2CC[C@@H](O)[C@H](OC)C2)CC(=O)[C@H](C)/C=C(\C)[C@@H](O)[C@@H](OC)C(=O)[C@H](C)C[C@H](C)/C=C/C=C/C=C/1C: 96.1%
COc1ccc(CNC(=O)Nc2ncc([N+](=O)[O-])s2)cc1: 92.1%
Nc1ncnc2n[nH]c(Nc3ccc(F)cc3)c12: 98.8%
O=C1NC(=O)C(c2cn(CCCO)c3ncccc23)=C1c1cnccn1: 90.1%
CNC(=O)c1cc(Oc2ccc(NC(=O)Nc3ccc(Cl)c(C(F)(F)F)c3)cc2)ccn1: 103%
N#CC(C#N)=C(N)/C(C#N)=C/c1ccc(O)cc1: 99.6%
O=C(O)c1ccc2c3c1cccc3c(=O)n1c3ccccc3nc21: 95.5%
C#Cc1cccc(Nc2ncnc3cc(OCCOC)c(OCCOC)cc23)c1: 89.6%
COc1ccc(C(=O)Nc2sc3c(c2C(N)=O)CCCC3)cc1OC: 95.1%

Mixed results
CC(=O)N[C@@H](Cc1c[nH]c2ccccc12)C(=O)N[C@@H](CCC(=O)C=[N+]=[N-])C(=O)OC(C)C  tumour volume (mice, MC-38 tumour rechallenge; 0.26 mg/kg, day 71 after injection): 0 mm3

A few entries again (mixed results):
CC(=O)N[C@@H](Cc1c[nH]c2ccccc12)C(=O)N[C@@H](CCC(=O)C=[N+]=[N-])C(=O)OC(C)C  tumour volume (mice, MC-38 tumour rechallenge; 0.26 mg/kg, day 71 after injection): 0 mm3
